Experimental data from different studies.
Each numbered part is a random draw from the data of one study; scales do not carry over between parts. Positions count from the first letter of the parent shown.

Set 1
Target: CCNB2, cyclin fold, Cln2 fusion (human)
Method: yeast growth competition, sequencing
Medium: yeast
Setting: weak parent motif
Relative to: not given
Reading: higher = stronger binding
Endpoint: normalised enrichment score
Starting sequence: E2F1 docking peptide (human); PPVKRRLDLETDH; partner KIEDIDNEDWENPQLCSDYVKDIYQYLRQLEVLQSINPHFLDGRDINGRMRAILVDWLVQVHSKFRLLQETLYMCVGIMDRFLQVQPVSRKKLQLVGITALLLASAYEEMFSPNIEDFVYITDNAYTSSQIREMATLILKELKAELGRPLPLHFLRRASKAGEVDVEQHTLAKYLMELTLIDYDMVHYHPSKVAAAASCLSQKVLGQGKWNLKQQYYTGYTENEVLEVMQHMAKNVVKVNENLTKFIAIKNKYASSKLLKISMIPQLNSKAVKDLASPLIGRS
KPVKRRLDLETDH [P1K]: 0.642
PPVHRRLDLETDH [K4H]: 0.299
PPVWRRLDLETDH [K4W]: -0.282
PPVQRRLDLETDH [K4Q]: 0.263
PPVKRRLELETDH [D8E]: 0.0529
PPVVRRLDLETDH [K4V]: 0.419
PPVKRELDLETDH [R6E]: 0.351
YPVKRRLDLETDH [P1Y]: 1.18
PPVKERLDLETDH [R5E]: -0.083
PPVKRRLDLEMDH [T11M]: 0.4
LPVKRRLDLETDH [P1L]: 0.941
APVKRRLDLETDH [P1A]: 0.682
PPVKSRLDLETDH [R5S]: -0.486
PPVKRRHDLETDH [L7H]: 0.173
PPVKRRLDLETDR [H13R]: 0.0836
PPVKRRLQLETDH [D8Q]: 0.507
PPVKRRLDLPTDH [E10P]: -0.0485
PPVKRREDLETDH [L7E]: 0.014
PPVKARADLETDH [R5A L7A]: -0.176
PPVKRRLLLETDH [D8L]: 0.675
PPVKRRLDLEKDH [T11K]: 0.21
PPVKRRMDLETDH [L7M]: 0.162
PPVRRRLDLETDH [K4R]: 0.24
PCVKRRLDLETDH [P2C]: 0.442
PPVKRRLDLETLH [D12L]: 0.265

Set 2
Target: Interferon regulatory factor 5, full length, phosphomimetic (IRF5, Homo sapiens, UniProt Q13568-2, residues 1-514, K96S/S451D/S453D/S456D/S462D)
Method: protein-binding microarray
Molecule type: double-stranded DNA, one strand shown
Medium: in vitro
Concentration: 250 nM
Setting: 60-bp whole probe
Added: salmon DNA 0.4 mg/ml
Relative to: random background probes
Reading: higher = stronger binding
Endpoint: log fluorescence
Shared flanks, not repeated: GCCTAGCAC … GTCTTGATTCGCTTGACGCTGCTG
TTAGAACCGAGTTTCGATTAGTGCTAG: 9.04 z-score
GACGGTATTGACTATCGGGACGTGCTA: 1.59 z-score
GACGGTATCGTGTATCGGGACGTGCTA: 1.33 z-score
ATATATGTAATCATTCACCTGGTGCTA: 0.523 z-score
GACCAACTGAGTTTCGAGACGTGCTAG: 4.41 z-score
GGCGGTATCGGTCTCGGGACGTGCTAG: 5.63 z-score
GATGAAGATGTAGAACTTTTGTGCTAG: 0.16 z-score
GACGGGTTCGGTTTCGGGACGTGCTAG: 3.16 z-score
TTAGGTATCCTACTGCTTTAGTGCTAG: -0.222 z-score
GACGAACTGGGGACTGGATACGTGCTA: -0.428 z-score
ATAGGACTGGACTTTCGGTTAGTGCTA: 9.61 z-score
TTAGATCTCAGACAGGATTAGTGCTAG: -0.111 z-score
TTAGGTATCGGACAGGGTTAGTGCTAG: 1.55 z-score
CACTCTTTCCTCACCATACTGTGCTAG: 0.712 z-score
TTATATTTCAGTTTCGATTAGTGCTAG: 10.3 z-score
TCAAGTTTCTTTTCTTTACTGTGCTAG: 2.48 z-score
TTAGGTCTCGGTATCGGATAGTGCTAG: 1.78 z-score
TTAGGTCTCATTCTCCTTTAGTGCTAG: 0.0405 z-score
TTAGGTTTCGGTCTCGGTTAGTGCTAG: 10.4 z-score
GACGATATCGGGACTGGATACGTGCTA: 0.886 z-score

Set 3
Target: RING finger protein unkempt homolog, zinc fingers 1-6, GST-SBP tag (UNK, Homo sapiens, UniProt Q9C0B0, residues 30-357)
UniProt Q9C0B0, sequence (30-357, looked up): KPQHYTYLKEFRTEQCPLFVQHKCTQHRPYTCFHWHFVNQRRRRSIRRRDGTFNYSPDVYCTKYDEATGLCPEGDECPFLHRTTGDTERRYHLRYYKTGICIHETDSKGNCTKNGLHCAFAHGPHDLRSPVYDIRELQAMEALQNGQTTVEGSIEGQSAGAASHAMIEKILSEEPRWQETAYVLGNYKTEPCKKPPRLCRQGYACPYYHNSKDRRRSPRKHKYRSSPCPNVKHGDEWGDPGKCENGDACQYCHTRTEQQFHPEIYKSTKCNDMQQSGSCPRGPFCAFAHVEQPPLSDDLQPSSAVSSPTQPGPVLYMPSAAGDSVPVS
Method: RNA Bind-n-Seq
Molecule type: RNA
Medium: in vitro
Concentration: not given
Setting: RNA with constant flanks, human-mouse chimeric sites, ends assumed
Relative to: input RNA pool
Reading: higher = stronger binding
Endpoint: bound/input enrichment
Shared flanks, not repeated: GGGAGUUCUACAGUCCGACGAUC … CAACAGAGGAUUGAGCAUCA
CUUAAUGUUAAUAUUUUUGAAUAAAUGUAAAACCAUGGUCUGCUUUUGGUACAACACGCAUUAAUAAAAGGUUAAGUAAGUUUUGUUACUGAAGUACUAUUUAACAUCUCAGAAAAAAAC: 0.264 ratio
CUGAAAAACACAGAUAUCAAAGUUGUUGACUUUGGAAGUGCAACGUAUGACGACGAACAUCACAGUACUUUGGUGUCUACCCGGCACUACAGAGCUCCCGAGGUCAUUUUGGCUCUAGGU: 0.223 ratio
GCGAACAGGACUACAGAAAUGCUGGUAAUUUCAGUCACUUGCUGAUGACUUCUGAUGUCCCAGCAAAUGUUGGCAUUGUUGACUGCUGAGAAGAUACUUCUGAGGACAUACAGCAGUGGU: 0.132 ratio
CUGAGGAUACCACUGAAGAGACCUUAAAAGAAUCAUUUGAGGGCUCUCGUUCGGGCAGAAUAGUCACUGAUCGGGAAACUGGUUCUUCCAAAGGGUUUGGUUUUGUAGACUUUAAUAGUG: 0.765 ratio
CUUAAUGUUAAUAUUUUUGAAUAAAUGAAGCUAAAAUGUCUGCUUUUGGUACUACAUGCAUUAAUAAAAGGUUAAGUUUUGUUUUCCACUGAAGUACGUAAUACUUACUCAGAAAAAAAC: 0.346 ratio
AAAGCCCAAGUAUUUUGAAAAAACUCGAACAGAUUUGACAAGGGUAGCCAGCUUGGAGUCUAGCAACUUGCCAAUGUGUUUACCAAUCUGGGGGCUUUGUUUUUCUUUCUUCUUUCAAAU: 0.24 ratio
GAUCAUGAACCACCAUCAGAAAUGAAGAUGAGAUUACCCAGACGAGCCAAAACAGCUGCGCUACAGAAAAGUAAACUUUAACCUUGCGAGUUCCUUAAAUGAAGAUCAAGUUAAGAGAGC: 0.31 ratio
ACUCUUGACUCUUUCCAUCCUCUUCCUUUCCCUCUUGAUCUUCAAGGCCAUGAAUCCCAAAAUAGCUGUCUUAGUGGCUAGCACCCAAACAGAGGUGGAAUAAAUCCACCCCAGUGUCUC: 1.07 ratio
GGCUGCUGGUGACUGUCCUGGAGUGGCUGGAGUUCCCGCCGGAGCGCGGCCAGACUAAUUAUAGAAAAUGCCAAGUAGGAAGUUUGUUGAGGGUGAAGUGGUCAGAGGCCGAUGGCCUGG: 4.32 ratio
CUCAGAGAUGUGGCAUAUCAGUAUGUGAAAAAGGGGGCUCGAAUUUAUGUGGAAGGGAAAAUAGACUAUGGCGAGUACAUGGAUAAAAACAAUGUGAGGCGGCAAGCAACAACAAUCAUA: 0.51 ratio
CAGGGCAUCAUCUCUCGUGCUGUUAGACACCUGUUCAAGAGUAUUGAUGAGAAAAAGACCUCAGCGAUUAAAAACGGGCUUCCUGCUCCAGAUUUUAAAGUGAAUGCCCAGUUCCUAGAG: 0.24 ratio

Set 4
Target: RNA binding protein fox-1 homolog 2, RRM domain, GST-SBP tag (RBFOX2, Homo sapiens, UniProt O43251-10, residues 100-194)
Method: RNA Bind-n-Seq
Molecule type: RNA
Medium: in vitro
Concentration: 365 nM
Setting: natural RNA segment, single round, ends assumed
Relative to: no-protein control
Reading: higher = stronger binding
Endpoint: RBNS enrichment (R)
Shared flanks, not repeated: GGGAGUUCUACAGUCCGACGAUC … UGGAAUUCUCGGGUGCCAA
Construct (chain): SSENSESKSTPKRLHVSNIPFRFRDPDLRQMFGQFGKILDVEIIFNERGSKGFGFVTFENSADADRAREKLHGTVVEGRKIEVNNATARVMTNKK
CACUCGCUGCCGGGACCCUUUCACUGCCCCGGUGGAGUGAAUAGAGGAUGAGGGGCCCUGACCCUGUGUCUCCAACUGCUGCACCCCAUCCCGACCCUGUCUCCGCCACC: 0.357
CGUUCUAGCUGUAUGCGUUCUGUAGUCUUUUCUUAGGUGGGUAACAUUUUCAAUAACGCGCGCACAGCACACAGGGGUGCCCUGAGCCGAAGGAGCAAAAAAAGCCACCG: 0.541
CCGCCUCUGGAGGAAGAUGAAGAGGAAGAGUGACAGCAGAGGGGGCGGGGUUCCUGGUGGGAAAGCUGGGUACCUGCUUCCUGUUUCCAGCCAGUUGCCUUUGCUCAGAA: 0.639
CACAAUCAUGCCAGCCAACAUUCCAGAAUUCUGCUGAGAACUCCAAGUCUGUGAGGGGAGAGGUUUUACAAGCCAGACAGGCCUGGGGGACUGCAGUCCCCAAGGAGACC: 0.519
GUCCCUGUGGCACCUGUAACUGGCCAUAGUGUCUUUCUGGUCUGUGUGUUCUUCCAGCCAGCCUUGGGCUUUGGGCCCAGCCAGGCUCACACCCAGAAAGGGGUGUCCUG: 0.478
CCUUUUCCCACAGGGAAAGAAAAGUUGGAUCACUAGUGGCCAGCAUCCCCAGAGUUCCGUUAGUAAACUUACUUCAUAUGUCCCCUGUCUUCCUCCAUCUGAGAAGUGGC: 0.78
GCACAGGAAGGUGGAAACAAAAUGCCAGGCCUCUGCUCUGAAGAGCAAAACUGCUGUCGCUGCAGUAUCUGAUACCAGACAUCCACAUAUCCACAAGAAGUGCCUCUUAG: 0.394
UUUAAAAGGGCGACAACUGACUCACGAGAUGGCGACCAUCUUGAGCCUAUUUGGGGAGACCUGUAUCCGUGACUUUUGUUUUUAAUAAAAAGAAAAAAAAAUCUGUUACU: 0.398
CCAUACGAGGAGCCCACCGUCCCUGUCCCUCGAGGUCACGUCCCACCGCUGCACUAAGGACUCACGGCCCAGCGUCCACAAGACUGAGGCCCUGUCCCUGCUCAGAGAAC: 0.402
CUGACCUUGUGCCUUAAGUCUACUAGUGCCUGAUGGAGCCACCCUCAUAGGGCUGAACCAGUGGGGCUGACGGGCCAGGUCAGCCUUGGACCCUUGAUCCUGGAGGACCC: 0.206
UGAUACGGAGUCGUCUUGUCUGCAUUUUGGCCUCAGCAUCAUUAACUUCAAAGCUUUAUUCUGUCUGCCUGAGAGGAUCCAUGGAAGAUGAUUCUCCCAAAAAGCAGAAA: 0.802
AGGCUUUCAUUUCACUUCAGAUUCAGCGGUGGGAGAGUGAGCUAGUACUGUCCUAACCCUGGCUUUUCAGUUAAUGUUUCCAUCUGUGAAGCUUGGAAACACAGCUGGGA: 0.554
